Assay results collected from several papers.
Protocols differ between the studies behind these lines. Several values in a cell are separate wells, animals, samples, runs or records. Numbers after ± are the reported error.

| SMILES | tested on | test | test system | setting | scale | quantity | value |
| --- | --- | --- | --- | --- | --- | --- | --- |
| CC(C)C(=O)NCC(=O)O | – | binding, MIDAS equilibrium dialysis LC-MS | A2AR-BRIL thermostabilized | concentration not given | reference: no-protein control | log2 fold change | -0.509 |
| COc1cccc2c1C(=O)c1c(O)c3c(c(O)c1C2=O)C[C@@](O)(C(=O)CO)C[C@@H]3O[C@H]1C[C@H](N)[C@H](O)[C@H](C)O1 | Vero | MTT | – | 100 µM, 24 h | – | growth inhibition | 10.3 ± 0.89% |
| Cc1ccc(/C=[N+](\[O-])c2ccc(N(C)C)cc2)c2nsnc12 | LDR | silenced CMV-GFP reporter derepression, qHTS | – | – | – | efficacy | 34% |
| CC(C)NCC(O)c1ccc(O)c(O)c1 (stereo not shown) | mouse ventricular cardiomyocytes | – | – | dose not given, 0.063 s | – | sarcomere length | 1.8 µm |
| CCCCN1C[C@H](O)[C@@H](O)[C@@H](O)[C@H]1CO | sample E patient fibroblasts | Gb3 level lowering, LC-MS/MS, measured: Gb3 d18:1/16:0 | – | 216 h | – | IC50 | 34.2 µM |
| COc1cnc2cccc(N3CCc4c(cc(Cn5ccnc5C)cc4-c4cn(C)nc4C(F)(F)F)C3=O)c2c1 | SU-DHL-6 | cell growth, inhibitor | – | 120 h | – | EC50 | 0.795 µM |
| Cc1cc(Nc2ncc(Cl)c(Nc3ccccc3S(=O)(=O)C(C)C)n2)c(OC(C)C)cc1C1CCNCC1 | CLB-BAR | phosphoproteomics LC-MS/MS, measured: ERF phosphorylation | – | 0.2 µM, 1 h | reference: untreated | log2 fold change | -4.45 |
| CSc1cc(Oc2ccnc3[nH]c(=O)cnc23)ccc1NC(=O)Nc1cc(C(C)(C)C)nn1-c1ccccc1 | patient-derived cell line clone A | RPPA, measured: mTOR phosphosite 2448 | human | 1 µM, 4 h | reference: DMSO | phospho/total ratio | 0.78 |
| O=C1N=C(N2CCCCC2)S/C1=C\c1cccnc1 | NG108-cl | clomeleon fluorescence, measured: intracellular chloride reduction | – | 5 h | – | EC50 | inactive |
| O=P1(c2ccccc2)CCCCC1 | SW480 | MTT | – | 72 h | reference: IC50 HaCaT over IC50 SW480 | selectivity index | 1 |
| CC[C@H](C)[C@H](NC(=O)[C@H](CCCCN)NC(=O)[C@@H](NC(=O)[C@H](CCCNC(=N)N)NC(=O)[C@@H](NC(=O)[C@@H](CCCNC(=N)N)NC(=O)[C@@H](CCCNC(=N)N)NC(=O)[C@@H](CCCNC(=N)N)NC(=O)[C@@H](CCCNC(=N)N)NC(=O)[C@@H](CCCNC(=N)N)NC(=O)[C@H](N)CCCNC(=N)N)[C@@H](C)O)[C@@H](C)O)C(=O)N[C@@H](CC(=O)O)C(=O)N[C@@H](Cc1c[nH]c2ccccc12)C(=O)NC(C)(C)C(=O)N[C@@H](CCCCN)C(=O)N[C@H](C(=O)N[C@@H](CC(C)C)C(=O)NC(C)(C)C(=O)N[C@@H](CCCCN)C(=O)NCCCCCC(=O)NCCCC[C@H](NC(=O)CCCCCNC(=O)[C@H](CCCCN)NC(=O)C(C)(C)NC(=O)[C@H](CC(C)C)NC(=O)[C@@H](NC(=O)[C@H](CCCCN)NC(=O)C(C)(C)NC(=O)[C@H](Cc1c[nH]c2ccccc12)NC(=O)[C@H](CC(=O)O)NC(=O)[C@@H](NC(=O)[C@H](CCCCN)NC(=O)[C@@H](NC(=O)[C@H](CCCNC(=N)N)NC(=O)[C@@H](NC(=O)[C@@H](CCCNC(=N)N)NC(=O)[C@@H](CCCNC(=N)N)NC(=O)[C@@H](CCCNC(=N)N)NC(=O)[C@@H](CCCNC(=N)N)NC(=O)[C@@H](CCCNC(=N)N)NC(=O)[C@H](N)CCCNC(=N)N)[C@@H](C)O)[C@@H](C)O)[C@@H](C)CC)[C@@H](C)CC)C(N)=O)[C@@H](C)CC | SK-MEL-5 | annexin V/PI flow cytometry | – | 10 µM, 2 h | – | necrotic cells | 11% |
| Cn1cc(C2=C(c3ccc(Cl)cc3Cl)C(=O)NC2=O)c2ccccc21 | primary human cortical neurons | Western blot | – | 5 µM, 48 h, added: HIV Tat 100 ng/mL and maraviroc 2.5 µM | reference: Tat-treated cells, increase | NeuN protein level | 2.94 fold |
| COc1cccc(OC)c1-c1cc(C(=O)NC2(C(=O)O)C3CC4CC(C3)CC2C4)nn1-c1ccc(C(=O)N(C)CCCN(C)CCCN(C)C(=O)CN2CCN(CC(=O)[O-])CCN(CC(=O)[O-])CCN(CC(=O)[O-])CC2)cc1C(C)C.[177Lu+3] (stereo not shown) | HT-29 | – | – | 240 min, 4 h | reference: added activity | internalized fraction | 7.15 ± 0.3% |
| O=C(/C=C/C=C/C=C/C1CCCCC1)NC1=C[C@@](O)(/C=C/C=C/C=C/C(=O)NC2=C(O)CCC2=O)[C@@H]2O[C@@H]2C1=O | WM-115 | cell growth, CellTiter-Glo | – | 78 h | – | GI50 | 29.7 µM |
| Nc1ncnc2c1ncn2[C@@H]1O[C@H](CO)[C@@H](O)[C@H]1O | activated human T cells | measured: hypoxanthine | – | 10 µM | reference: DMSO | log2 fold change | 1.6 and 2 |
| Cn1cnc2c1c(=O)n(CC(=O)Nc1c(Cl)cccc1Cl)c(=O)n2C | Vero | MTT | – | 62.5 µg/mL | – | cytotoxicity | 0.214% |
| COc1ccc(-n2nc(C(C)=O)s/c2=N\N=C(/C)c2ccc(NC(=O)c3ccc(C)cc3)cc2)cc1 | HepG2 | – | – | 0.078 µM | – | toxicity | 0.182% |
| C=CC1=C(C)c2cc3[n-]c(cc4nc(cc5[n-]c(cc1n2)c(C)c5C=C)C(C)=C4CCC(=O)O)c(CCC(=O)O)c3C.[Zn+2] | SH-SY5Y | RNA-seq, measured: SGK1 mRNA | – | 5 µM, 5 h | reference: untreated cells | fold change | 1.55 |
| CNc1ncc2cc(-c3cc(NC(=O)NCCC(C)(C)C)c(F)cc3C)c(C)nc2n1 | SK-MEL-239 C4 (p61 BRAF V600E) | ERK phosphorylation, Western blot | – | 1 h | – | IC75 | 0.067 µM |
| Cc1nc(N(Cc2ccccc2)c2ccc3c(c2)/C(=C/c2ccccc2)C(=O)N3Cc2ccccc2)c2ccccc2n1 (mixture of isomers) | LLC | annexin V-FITC/PI | – | concentration not given | – | apoptotic cells | 78.4% |
| CC(=O)Nc1cccc(-n2c(=O)n(C3CC3)c(=O)c3c(Nc4ccc(I)cc4F)n(C)c(=O)c(C)c32)c1 | MeWo (NF1) | cell viability, resazurin | – | 50.00 nM, 72 h | reference: DMSO | fractional effect | 0.478 and 0.452 |
| Cn1cc(-c2ccc(-c3cncc(Cl)c3N3CCC4(CCNC4=O)CC3)cc2)cn1 | COLO 205 | gene expression, microarray, measured: ITGB1BP2 mRNA | – | concentration not given, 2 h | reference: untreated cells | log2 fold change | -2.42 |
| COc1ccc2c(N(C)c3ccc(/C(C)=N/OCCN)cc3)c3c(Cl)coc3nc2c1 | RWPE-1 | MitoSOX staining | – | 1 µM, 24 h | – | reduction in mitochondrial superoxide | 40% |
| CC(C)C[C@H](NC(=O)[C@H](Cc1ccccc1)NC(=O)c1cnccn1)B(O)O | HiBiT-BRD4 LgBiT cells | – | – | 1 µM, 24 h, no PROTAC | – | decrease in BRD4 level | ~50% |
| COc1ccc(NC(=O)c2sc3nc(-c4ccc(OC)cc4)cc(C(F)(F)F)c3c2N)cc1 | LDR | silenced CMV-GFP reporter derepression, qHTS | – | – | – | efficacy | 100% |

| SMILES | tested on | test | test system | setting | scale | quantity | value |
| --- | --- | --- | --- | --- | --- | --- | --- |
| COc1cc(/C=C/C(=O)N2CCC=CC2=O)cc(OC)c1OC | MDA-MB-468 | qRT-PCR, measured: DAPK1 | – | 30 µM, 6 h | reference: time zero | mRNA level | 84.7 ± 23.2% |
| CC/C(=N\NC(=O)C(C)Nc1ccccc1)c1ccc(O)c(C)c1O (stereo not shown) | SK-OV-3 | Western blot | – | 10 µM, 1 h, 3D gellan gum culture, unit not given | reference: DMSO | LATS band intensity | 0.21 ± 0.22 |
| C[C@H]1[C@H](OC(=O)CCC(=O)O)O[C@@H]2O[C@@]3(C)CC[C@H]4[C@H](C)CC[C@@H]1[C@@]24OO3 | human primary cardiac fibroblasts | Sirius red | – | 5 µM, 48 h, added: TGF-β1 5 ng/mL | – | collagen secretion | decreased |
| CCCCCCCCCCCCCCCC(NCc1ccccc1O)=C1C(=O)OC(CO)C1=O (stereo not shown) | G2-synchronized tsFT210 cells | flow cytometry | – | 5 µM, 4 h, 32 °C, release from G2 arrest | – | G1 phase cells | 59.2% |
| Cc1cc2nc3c(=O)[nH]c(=O)nc-3n(C[C@H](O)[C@H](O)[C@H](O)CO)c2cc1C | – | binding, MIDAS equilibrium dialysis LC-MS | A2AR-BRIL thermostabilized | concentration not given | reference: no-protein control | log2 fold change | -0.252 |
| CCn1cc(-c2cc(Cn3ccnc3)cc3c2CCN([C@H](c2cc(OC)ccn2)C2CC2)C3=O)c(C(F)(F)F)n1 | HT55 | cell growth, inhibitor | – | 120 h | – | EC50 | 3.12 µM |
| O=c1cc(C(Cl)(Cl)Cl)oc2ccc(Cl)cc12 | Neuro2a | inhibitor, western blot | – | concentration not given, added: BRP 100 µg/mL | – | CREB phosphorylation Ser133 | inhibited |
| CCNc1nc(Nc2ccc(F)c(Cl)c2)c2ccccc2n1 | Vero | MTT | – | 31.25 µg/mL | – | cytotoxicity | 0% |
| CC/C(=N\NC(=O)NCc1cccc(O)c1)c1ccc(O)c(C)c1O | SK-OV-3 | Western blot | 2D culture | 5 µM, 1 h, unit not given | reference: β-actin | YAP protein level | 1.19 ± 0.23 |
| C=Cc1c2[n-]c(c1C)/C=c1\[n-]/c(c(C)c1C=C)=C\c1[n-]c(c(CCC(=O)O)c1C)/C=c1\[n-]c(c(C)c1CCC(=O)O)=C2.[Sn+4] | SH-SY5Y | RNA-seq, measured: SERPINE1 mRNA | – | 5 µM, 5 h | reference: untreated cells | fold change | 2.28 |
| CN1CCN(c2ccc3[nH]c(-c4ccc5[nH]c(-c6ccc(C(F)(F)F)cc6)nc5c4)nc3c2)CC1 | TK-10 | SRB | – | 10 µM, 48 h | – | growth percent | 101% |
| C=C1CC[C@@H]2[C@](C)(CCC[C@]2(C)C(=O)O)[C@H]1CC/C(C)=C/CO | neuroblastoma M2 (−) | western blot | – | IC50 | reference: untreated | PCNA level | decreased |
| O=S(=O)(NNc1nnc(Cl)c2ccccc12)c1ccc(F)cc1 | Vero | MTT | – | 250 µg/mL | – | cytotoxicity | 75.1% |
| Oc1ccc(Br)cc1C=Nc1ccc2c3c(cccc13)CC2 | LDR | silenced CMV-GFP reporter derepression, qHTS | – | – | – | efficacy | 136% |
| Cn1cc(Nc2nccc(-c3ccc4c(c3)CN(C3COC3)CC[C@H]4NC(=O)c3cn(C(C)(C)C)nn3)n2)cn1 | mouse splenic B cells | measured: ErbB2-ErbB3 signalling | – | 30 mg/kg, IgD-activated in vivo | reference: vehicle, direction not given | pathway activation z-score | 1 |
| O=P1(C2CCCCC2)CCCCC1 | HaCaT | annexin V/PI flow cytometry | – | IC50, 72 h | – | necrotic cells | 0.05% |
| CCn1cc(-c2cc(Cn3ccoc3=N)cc3c2CCN([C@@H](C)c2cc(OC)ccn2)C3=O)c(C(F)(F)F)n1 | RERFGC1B | cell growth | – | 120 h | – | EC50 | 2.69 µM |
| CC(C)C[C@@H](C=O)NC(=O)[C@H](CC(C)C)NC(=O)[C@H](CC(C)C)NC(=O)OCc1ccccc1 | LDR | silenced CMV-GFP reporter derepression, qHTS | – | – | – | efficacy | 171% |
| CCc1ccc(NC(=O)Nc2c[nH]c3ccccc23)cc1 | RAW-ISG | western blot | – | concentration not given, added: poly(I:C) | reference: vehicle | phospho-TBK1/TBK1 ratio | 0.56 |
| Cc1cccc(-c2[nH]c(CNc3ccccc3F)nc2-c2ccc3ncnn3c2)n1 | MM1.S pomalidomide-resistant | XTT | – | 1.25 µM | reference: untreated | viability | 59% |
| COc1cc2ncnc(Nc3ccc(Oc4ccccc4)cc3C)c2cc1OC.O=C(O)C(F)(F)F | MeWo (NF1) | cell viability, resazurin | – | 0.1 µM, 72 h, added: trametinib 0 nM | – | average fractional effect | -0.0992% |
| Cc1cccn2c(=O)c(/C=C3\SC(=S)N(CC(C)C)C3=O)c(NCCCOC(C)C)nc12 | LDR | silenced CMV-GFP reporter derepression, qHTS | – | – | – | efficacy | 29% |
| O=C(C[C@@H](C(F)F)n1ccc(F)n1)N1CCC(O)(Cn2cnc3c(cnn3-c3ccc(F)cc3)c2=O)CC1 | CHP-212 resistant | PI flow cytometry | – | 0.1 µM, 24 h | – | G2/M phase cells | 13.2% |
| CCCCc1nc(Cl)c(CO)n1Cc1ccc(-c2ccccc2-c2nn[nH]n2)cc1 | human PBMC | RNA-seq, measured: FPR2 mRNA | – | 10 µg/mL, 24 h | reference: untreated control | log2 fold change | 1.7 |

Some of these lines once more:
| SMILES | tested on | test | test system | setting | scale | quantity | value |
| --- | --- | --- | --- | --- | --- | --- | --- |
| Cn1cc(-c2ccc(-c3cncc(Cl)c3N3CCC4(CCNC4=O)CC3)cc2)cn1 | COLO 205 | gene expression, microarray, measured: ITGB1BP2 mRNA | – | concentration not given, 2 h | reference: untreated cells | log2 fold change | -2.42 |
| COc1ccc2c(N(C)c3ccc(/C(C)=N/OCCN)cc3)c3c(Cl)coc3nc2c1 | RWPE-1 | MitoSOX staining | – | 1 µM, 24 h | – | reduction in mitochondrial superoxide | 40% |
| CC(C)C[C@H](NC(=O)[C@H](Cc1ccccc1)NC(=O)c1cnccn1)B(O)O | HiBiT-BRD4 LgBiT cells | – | – | 1 µM, 24 h, no PROTAC | – | decrease in BRD4 level | ~50% |
